Results gathered from unrelated publications.
Parts stem from different laboratories: compare values within a part only. Positions count from the first letter of the parent shown.

Series 1 — method: protein binding microarray; form: double-stranded DNA, one strand shown; sample: in vitro; concentration: not given; baseline: not given; reading: higher = stronger binding
Target: Histone acetyltransferase KAT6A, both winged helices, GST fusion (KAT6A, Homo sapiens, UniProt Q92794, residues 1-181)
Setting: 8-mer, flanks averaged, mean of 2 arrays, mostly near background
Residues (chain): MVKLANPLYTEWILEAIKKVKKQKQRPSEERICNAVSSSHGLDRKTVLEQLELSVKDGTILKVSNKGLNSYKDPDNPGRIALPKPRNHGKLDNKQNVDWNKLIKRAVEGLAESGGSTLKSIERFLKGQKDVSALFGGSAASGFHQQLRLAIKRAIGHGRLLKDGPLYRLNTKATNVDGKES
Oligonucleotide | E-score
GAAGATAA | 0.0529
ATAGCGGG | 0.15
ACTGGTAC | -0.0593
ATGTACAC | -0.0644
ACTGAGGC | -0.00266
ACAGGGAC | 0.0721
CCCCCAAA | -0.198
CGCATCCG | 0.307
ATAGCGAC | 0.138
GCCTGGAC | -0.0811
GTACTGCA | -0.0389
AACACATG | -0.113
AGTGTCAG | -0.122
CCTTCTAA | -0.228
AAAGAAAA | -0.0354
ACGTATCA | -0.0524
ATATTTGC | 0.0327
CCTAGTGA | -0.133
TACCCCAA | -0.234
AGTACAAA | -0.111
ACTATGTA | -0.144
AGTTCGTA | 0.0171
ATGCATGA | -0.104
ATAATTGG | -0.0744
AGACAGGA | -0.326

Series 2 — method: RNA Bind-n-Seq; form: RNA; sample: in vitro; concentration: 365 nM; baseline: no-protein control; reading: higher = stronger binding
Target: RNA binding protein fox-1 homolog 2, RRM domain, GST-SBP tag (RBFOX2, Homo sapiens, UniProt O43251-10, residues 100-194)
Setting: natural RNA segment, single round, ends assumed
Target sequence (chain): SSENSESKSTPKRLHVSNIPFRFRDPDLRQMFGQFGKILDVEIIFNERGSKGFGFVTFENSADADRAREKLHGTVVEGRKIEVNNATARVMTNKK
Oligonucleotide | RBNS enrichment (R)
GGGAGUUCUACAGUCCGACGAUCCUUUGGCCACUUGAAGUUCCUGUUAGUGAGGCUCCAAGGAUCUACCAAGGUGCUAUGGCGCAAAGGGCCCUUCUGCAGAAACCCAGUUUUCCUACCUGGGCUGGUUUCUUUGGAAUUCUCGGGUGCCAA | 0.383
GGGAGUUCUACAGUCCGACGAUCGUGGAAGAGCCCAGGGGCUGGUCCCAGAACAGGCAGUCUCACAAGCACGCAGCACACUGGAGUGGACGCCUGUGCCCACCCGAGCCUGGAGCAUGGCCAAGAGCCAGCUUUGGAAUUCUCGGGUGCCAA | 11.4
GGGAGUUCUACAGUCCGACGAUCUGUUUUUUAGGGGAAAGGGAUUCUAAGAAUGUCAUUUAAUGUACUUUGCAUCAUGUCUCUAGAAAUAUCUUUGUCCAUAGUGGUGGUGGAGUCUCUCUCUCUCUCUCUCUUGGAAUUCUCGGGUGCCAA | 0.428
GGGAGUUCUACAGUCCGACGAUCAACUGCAGAGGAGCUGCCCUCUGUCAGCAGCUCUCCAGCAUGGUCCUCUGACACUCCUCAGAUGAACUGUUCUCAUCGGAAGCUUGCUGUCUUUUUACAAGAUGAGCUUUUGGAAUUCUCGGGUGCCAA | 0.265
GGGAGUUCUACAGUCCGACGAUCCAACUCUGUAACAUGGACGCAACCUCAACCCGGCGCAGUUACAACUUCACUGUCAGUGGAAGGGGAGCGAAACCAACUCGAAUCAACUUAUACAUGGAAACAGCAAACAUUGGAAUUCUCGGGUGCCAA | 0.313
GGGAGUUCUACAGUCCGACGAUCGUGCGUCUCGGGUGACCCUUGCUGUCUUUUCUCUACACCCAUGGAUUCUCUGAAAAUACUUUGCAGUUCCUUGUGUCUUAAAAAAACACAAAAACAAAAACCAGAACUAGUGGAAUUCUCGGGUGCCAA | 0.42
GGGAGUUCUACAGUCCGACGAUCGAAGGUUGGGAUCAAUCUUGUCAAGUCUAUGUUACACUUACUUUUACAAAAAAAAGUAUAUAUACAUAUUAUCAGCACACAAAAGCAACUCUGAGGUUGCUAGUGACAUUUGGAAUUCUCGGGUGCCAA | 0.463
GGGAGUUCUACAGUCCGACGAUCCGAGUCAAAAGCUUCAGUGAGUUACAUCUCAUUCAAUCUCCAGAAGAUUGGGAUUAUCGUCUUCUAAGAGGUUGCUAAUGCCUUUCAUCUUGAAGUUACACAUAACUUCUUGGAAUUCUCGGGUGCCAA | 0.337
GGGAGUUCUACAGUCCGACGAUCUAAUUGGGAUUAUUUUUUAAAAGAGGUCUUUCUCCCCGAAAUACAAGUUUUAGAAAAUCUUAGAAGAGGGGUGGGUGCAUGUCUUAAUGCUGGGAAGCGGCAACUUUGGGUGGAAUUCUCGGGUGCCAA | 2.8
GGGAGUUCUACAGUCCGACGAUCAGUAUUUGAAGUCUGUUCAACUUAGUUUUACGCUAGUGUUCUGACAUAUUUUAAUUGCAUAUAACUGUAUAAUAGUCCGUGUUGUUUUCUUGCAUUGACAUGUUUCCUUUUGGAAUUCUCGGGUGCCAA | 0.692
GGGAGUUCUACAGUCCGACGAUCCGGGGAAGGGAAAAACCUGUUGGAGUUGCUUCCAGCCAGCCACGCUCCGGGCCAGCAUGUUGGAAUCCAGCGUGGAGCAGAUGCAGUAAAAAUGUGGUUGGUUUCUGUGUUGGAAUUCUCGGGUGCCAA | 19.7
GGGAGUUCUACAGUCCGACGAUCAGCCACCCUUCCUCUUCUGGACCCAGCCUGGUCUGCACUGCAACCUCCACCAGGACCAGGAUCCUGGGCCACAGGCUGGGAUGGUCCUUCCAAGAAAGGGUCAUUUCAGAUGGAAUUCUCGGGUGCCAA | 0.389

Series 3 — method: RNA Bind-n-Seq; form: RNA; sample: in vitro; concentration: not given; baseline: input RNA pool; reading: higher = stronger binding
Target: RING finger protein unkempt homolog, zinc fingers 1-6, GST-SBP tag (UNK, Homo sapiens, UniProt Q9C0B0, residues 30-357)
Setting: RNA with constant flanks, human and mouse sites, ends assumed
Construct (chain): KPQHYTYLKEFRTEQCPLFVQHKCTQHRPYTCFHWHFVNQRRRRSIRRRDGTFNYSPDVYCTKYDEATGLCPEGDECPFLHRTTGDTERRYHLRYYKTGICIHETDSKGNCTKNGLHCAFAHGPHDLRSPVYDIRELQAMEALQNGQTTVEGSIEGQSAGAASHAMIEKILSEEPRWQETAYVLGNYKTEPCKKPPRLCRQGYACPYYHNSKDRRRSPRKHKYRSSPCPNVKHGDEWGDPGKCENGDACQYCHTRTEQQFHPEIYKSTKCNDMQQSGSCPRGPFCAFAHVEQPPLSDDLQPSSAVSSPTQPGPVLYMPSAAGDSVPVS
Oligonucleotide | bound/input enrichment [ratio]
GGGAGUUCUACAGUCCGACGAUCGGUGUUGUAAGUGCCCAAAGUCAUGGUACUUGUAUUCCCAGUGAAGAUAAAACCUGUCAGAGCACAAAGAUGGUUUCUUAUAAUGAUUCUGUCACACAAGCCACCUUGACCACAGCUUAUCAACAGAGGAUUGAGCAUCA | 0.0946
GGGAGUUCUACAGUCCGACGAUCCUGGGCAUUUAUAACUAGAUUCAUUAAGGAAUACAAAGAAAAUAUUUAAAGGGAUCAAUAAUGGUGUCUUCUGGCUGCAGAAUGCGAAGUCUGUGGUUUAUCAUUAUAAUCAGUUUCUCACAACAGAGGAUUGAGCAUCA | 0.76
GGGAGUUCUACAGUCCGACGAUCUCGCUGCCCCAGCCGCAGCAGGACGGCGGUGGCGGUGCUAGUAGCGGCGGGGGUGUGACCCCGCUGGUGGAAUACGAGGAUGUGAGCUCCCAGUCCGAGCAGGGGCUGCUGCUGGGGGGGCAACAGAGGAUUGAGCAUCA | 0.728
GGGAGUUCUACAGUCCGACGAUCAAGACAGAACAGUACGUGGAGCUCCACAAAGGCGAGGUGGUGGAUGUCAUGGUCAUUGGACGGCUAUGAUGGUCACCAGCAGGAGAAAGCUUUGAUGCAUGUCCACAUAUCAUUGACUGUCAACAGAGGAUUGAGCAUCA | 0.0824
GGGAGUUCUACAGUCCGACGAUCAUGAUGAAAGGCGAGUUUUAUGUCAUUGAAUAUGCUGCUUGUGAUGCCACUUACAAUGAAAUAGUCACAUUUGAACGACUUCGGCCUGUCAAUCAAAAUAAAACUGUCAAAAAAAAUACCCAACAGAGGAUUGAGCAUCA | 0.284
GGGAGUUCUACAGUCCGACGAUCAGGAAAUGCUGCAAUCAUCCGUAUCUUAUCAAAGGUGCUGAGGAGAAAAUACUUGGAGAAUUUAGAGAUACAUACAAUCCAUCUGCCUCUGAUUUUCAUCUGCAAGCAAUGAUCCAAUCUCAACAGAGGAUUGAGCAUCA | 0.308
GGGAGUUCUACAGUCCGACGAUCCAGAGAGCCUUUUACUUCAGAAUAUUGGGGGUGUGGAAACCUCACCUCUUUUUUUCUGCACUUUGUAGCAUCUGACUGACUAAAUGGUUGUCCUCGGUACCAAAAAGGCUGCCAUACAAUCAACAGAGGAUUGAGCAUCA | 0.194
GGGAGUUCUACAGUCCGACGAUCGAGGAGGAUAAACCCAGGCAGGUGGAGGUGCAUCAAGAGCCCGGGGCAGCGGUGCCCAGAGGCCAGGAGGCCCCUGAAGGCAAGGCCAGGGAGACGGUGGAGAAUCUGCCUCCCCUGCCUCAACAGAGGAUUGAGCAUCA | 0.217
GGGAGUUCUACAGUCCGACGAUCGCAGAAUUUGCUGAACUAAAAACACAAAUAGAGAAAAUGAGACUAGAUUACCAACACGAAAUAGAAAAUUUGCAGAAUCAACAAGACUCUGAACGGGCUGCCCAUGCUAAAGAGAUGGAACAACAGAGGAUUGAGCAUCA | 14.5
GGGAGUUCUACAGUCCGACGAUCAGAGCCCAGGAUGUUGAUGCUACAAAUCCAAAUUACGAAAUUAUGUGUAUGAUCAGAGACUUCAGAGGGAGCUUGGAUUACAGACCCCUAACAACAGCAGAUCCUAUUGAUGAACAUAGGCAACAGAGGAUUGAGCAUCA | 0.321
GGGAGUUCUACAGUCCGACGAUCAGAAAGCUUUUAAGUUCUUUGCAGUAUAAUAAGAAUUUGCUAAAAUAUUUAAAUGAUGAUAGGCAGAAGCAACCAUCUUUUUGUGAUUUACUUAUCAUAGUGGAAGGAAAAGAAUUUAGUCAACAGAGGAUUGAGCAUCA | 1.04

Series 4 — target: CCNB3, cyclin fold, Cln2 fusion (human); method: yeast growth competition, sequencing; sample: yeast; setting: weak parent motif; baseline: not given; reading: higher = stronger binding
Starting sequence: RBL1 docking peptide (human); GSAKRRLFGEDPP; partner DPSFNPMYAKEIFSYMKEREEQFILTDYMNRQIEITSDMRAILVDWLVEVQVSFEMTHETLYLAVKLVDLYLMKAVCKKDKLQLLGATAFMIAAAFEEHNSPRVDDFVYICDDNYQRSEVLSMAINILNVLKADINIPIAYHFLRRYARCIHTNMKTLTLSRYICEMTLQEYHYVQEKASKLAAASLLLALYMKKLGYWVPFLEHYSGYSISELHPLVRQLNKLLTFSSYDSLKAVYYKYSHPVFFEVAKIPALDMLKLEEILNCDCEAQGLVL
Change | normalised enrichment score
GSAKRRLFGEDHP [P12H] | 0.56
GSAKRRLFKEDPP [G9K] | 0.676
GSAKRRLFWEDPP [G9W] | 1.14
GSIKRRLFGEDPP [A3I] | 0.366
GSAKRRLDGEDPP [F8D] | 0.422
GSAKRRLQGEDPP [F8Q] | -0.107
GSAKLRLFGEDPP [R5L] | -0.00989
GSAKRRLFGEDPE [P13E] | -0.442
ESAKRRLFGEDPP [G1E] | 0.717
GSKKRRLFGEDPP [A3K] | 0.252
GSAKRRLFGEDFP [P12F] | 0.812
GSAKRRLFGERPP [D11R] | 0.213
GSAKRRLFGEDPD [P13D] | 1
GMAKRRLFGEDPP [S2M] | 0.616
GSAKRRLFGELPP [D11L] | 0.645
GSAIRRLFGEDPP [K4I] | 0.424
GSAKRRLFGRDPP [E10R] | 0.396
GSAKRRLFFEDPP [G9F] | 1.32
GSAKRVLFGEDPP [R6V] | 0.71
GSAKFRLFGEDPP [R5F] | 0.617
GSAKSRLFGEDPP [R5S] | 0.551
GSAKRRLYGEDPP [F8Y] | 0.232
GSAVRRLFGEDPP [K4V] | 0.817
GSAKRRPFGEDPP [L7P] | 0.28
GSAKRRLFTEDPP [G9T] | 0.931
